Experimental data from different studies.
Parts stem from different laboratories: compare values within a part only.
UniProt P00519, sequence (whole entry, unmodified, looked up): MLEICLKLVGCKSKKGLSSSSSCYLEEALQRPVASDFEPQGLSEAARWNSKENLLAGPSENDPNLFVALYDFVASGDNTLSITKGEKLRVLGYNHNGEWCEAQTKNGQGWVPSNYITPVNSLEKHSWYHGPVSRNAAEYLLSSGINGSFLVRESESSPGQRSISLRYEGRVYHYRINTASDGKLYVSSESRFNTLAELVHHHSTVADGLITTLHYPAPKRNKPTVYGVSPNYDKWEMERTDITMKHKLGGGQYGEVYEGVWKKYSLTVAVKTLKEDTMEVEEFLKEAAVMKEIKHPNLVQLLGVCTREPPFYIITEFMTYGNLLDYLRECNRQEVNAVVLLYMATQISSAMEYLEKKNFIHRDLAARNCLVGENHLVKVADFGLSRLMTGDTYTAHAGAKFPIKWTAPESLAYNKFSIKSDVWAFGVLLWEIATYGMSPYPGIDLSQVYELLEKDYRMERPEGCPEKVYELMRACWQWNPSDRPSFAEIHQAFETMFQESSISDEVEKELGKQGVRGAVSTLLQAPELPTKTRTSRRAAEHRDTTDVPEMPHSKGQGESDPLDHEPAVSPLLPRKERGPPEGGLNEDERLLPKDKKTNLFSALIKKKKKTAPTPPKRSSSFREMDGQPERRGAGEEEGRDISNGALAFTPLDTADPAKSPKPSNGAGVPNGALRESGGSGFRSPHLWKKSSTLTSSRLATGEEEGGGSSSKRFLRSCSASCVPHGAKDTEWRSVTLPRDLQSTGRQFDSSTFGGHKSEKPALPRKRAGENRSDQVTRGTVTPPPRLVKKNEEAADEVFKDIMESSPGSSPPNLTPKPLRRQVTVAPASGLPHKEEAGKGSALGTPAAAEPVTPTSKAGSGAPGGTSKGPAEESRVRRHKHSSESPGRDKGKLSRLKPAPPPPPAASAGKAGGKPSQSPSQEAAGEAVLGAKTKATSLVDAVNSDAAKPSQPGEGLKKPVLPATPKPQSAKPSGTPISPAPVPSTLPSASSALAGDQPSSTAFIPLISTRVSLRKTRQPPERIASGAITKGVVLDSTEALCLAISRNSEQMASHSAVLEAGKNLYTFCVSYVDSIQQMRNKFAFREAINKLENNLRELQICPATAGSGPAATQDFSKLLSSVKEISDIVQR
UniProt P08922, sequence (whole entry, looked up): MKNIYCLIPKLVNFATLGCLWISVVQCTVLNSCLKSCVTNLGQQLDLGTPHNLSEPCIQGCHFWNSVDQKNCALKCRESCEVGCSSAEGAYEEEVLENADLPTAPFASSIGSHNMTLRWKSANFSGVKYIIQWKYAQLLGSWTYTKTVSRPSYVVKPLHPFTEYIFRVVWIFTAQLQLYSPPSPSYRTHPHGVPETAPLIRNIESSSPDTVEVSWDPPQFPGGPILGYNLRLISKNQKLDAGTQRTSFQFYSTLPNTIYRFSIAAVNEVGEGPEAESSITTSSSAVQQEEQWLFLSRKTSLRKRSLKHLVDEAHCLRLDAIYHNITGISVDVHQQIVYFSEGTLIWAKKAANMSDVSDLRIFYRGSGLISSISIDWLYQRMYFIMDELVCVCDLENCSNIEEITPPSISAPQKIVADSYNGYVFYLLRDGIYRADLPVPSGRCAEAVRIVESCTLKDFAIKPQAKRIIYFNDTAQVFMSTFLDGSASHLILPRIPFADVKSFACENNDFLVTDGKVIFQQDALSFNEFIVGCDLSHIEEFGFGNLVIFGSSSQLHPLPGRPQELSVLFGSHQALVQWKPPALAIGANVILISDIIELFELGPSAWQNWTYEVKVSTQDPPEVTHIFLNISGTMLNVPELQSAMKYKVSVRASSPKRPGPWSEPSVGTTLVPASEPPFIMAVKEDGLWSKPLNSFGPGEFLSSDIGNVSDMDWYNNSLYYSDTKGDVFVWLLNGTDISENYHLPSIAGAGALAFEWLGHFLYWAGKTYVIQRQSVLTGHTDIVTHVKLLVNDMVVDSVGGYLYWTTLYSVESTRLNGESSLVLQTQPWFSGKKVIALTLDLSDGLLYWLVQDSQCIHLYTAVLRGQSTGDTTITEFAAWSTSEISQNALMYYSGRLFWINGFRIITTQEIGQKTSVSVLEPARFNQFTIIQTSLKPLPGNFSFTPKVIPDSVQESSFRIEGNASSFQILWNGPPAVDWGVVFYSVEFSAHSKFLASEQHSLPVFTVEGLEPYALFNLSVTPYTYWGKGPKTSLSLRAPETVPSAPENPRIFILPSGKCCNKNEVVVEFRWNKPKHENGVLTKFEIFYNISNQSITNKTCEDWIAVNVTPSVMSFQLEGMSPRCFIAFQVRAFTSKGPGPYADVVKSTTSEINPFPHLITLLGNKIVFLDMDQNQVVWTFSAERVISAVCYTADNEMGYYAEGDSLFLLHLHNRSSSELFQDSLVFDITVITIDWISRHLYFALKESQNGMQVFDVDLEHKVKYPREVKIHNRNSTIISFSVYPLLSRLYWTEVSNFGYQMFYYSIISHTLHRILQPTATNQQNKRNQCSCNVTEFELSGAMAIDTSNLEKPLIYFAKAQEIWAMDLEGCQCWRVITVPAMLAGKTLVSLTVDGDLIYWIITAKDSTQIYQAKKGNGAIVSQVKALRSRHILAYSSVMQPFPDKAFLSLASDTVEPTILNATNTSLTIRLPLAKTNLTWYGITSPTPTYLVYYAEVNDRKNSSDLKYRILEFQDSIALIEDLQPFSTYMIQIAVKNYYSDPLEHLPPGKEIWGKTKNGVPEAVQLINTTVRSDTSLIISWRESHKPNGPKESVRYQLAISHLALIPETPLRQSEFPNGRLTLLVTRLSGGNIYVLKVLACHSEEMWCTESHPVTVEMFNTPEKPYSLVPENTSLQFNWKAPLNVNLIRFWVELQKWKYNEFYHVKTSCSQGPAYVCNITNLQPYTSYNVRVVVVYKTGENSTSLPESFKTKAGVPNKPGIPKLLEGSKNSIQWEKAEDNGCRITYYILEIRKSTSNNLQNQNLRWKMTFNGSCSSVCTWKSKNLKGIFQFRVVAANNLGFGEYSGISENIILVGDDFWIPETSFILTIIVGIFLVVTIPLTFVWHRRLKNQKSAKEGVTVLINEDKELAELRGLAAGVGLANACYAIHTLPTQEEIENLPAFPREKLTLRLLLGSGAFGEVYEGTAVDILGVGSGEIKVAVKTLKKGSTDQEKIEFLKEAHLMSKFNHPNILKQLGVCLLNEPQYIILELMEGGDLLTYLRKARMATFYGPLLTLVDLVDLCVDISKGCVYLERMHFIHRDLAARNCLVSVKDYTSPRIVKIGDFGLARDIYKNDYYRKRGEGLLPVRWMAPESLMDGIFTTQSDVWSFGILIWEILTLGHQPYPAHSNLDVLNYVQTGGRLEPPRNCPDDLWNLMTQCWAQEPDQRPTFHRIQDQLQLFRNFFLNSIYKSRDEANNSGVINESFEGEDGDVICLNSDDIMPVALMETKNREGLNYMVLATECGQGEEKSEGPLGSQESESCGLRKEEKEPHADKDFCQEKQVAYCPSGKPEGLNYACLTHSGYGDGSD
UniProt P11802, sequence (whole entry, looked up): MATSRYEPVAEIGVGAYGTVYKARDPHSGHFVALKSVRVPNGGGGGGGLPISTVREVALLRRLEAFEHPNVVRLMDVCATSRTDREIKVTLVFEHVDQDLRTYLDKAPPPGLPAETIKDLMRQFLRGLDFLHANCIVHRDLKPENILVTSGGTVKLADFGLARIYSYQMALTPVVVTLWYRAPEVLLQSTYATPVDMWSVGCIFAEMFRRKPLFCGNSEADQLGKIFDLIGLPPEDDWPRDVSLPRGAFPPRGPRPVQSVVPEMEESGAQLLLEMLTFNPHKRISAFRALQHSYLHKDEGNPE

Study 1
Structure (SMILES): Cc1nc(C2CCN(C(=O)c3ccc(OC(F)(F)F)cc3N)CC2)c2ncc(N3CCN(C)CC3)cc2n1
Method: competition with immobilised ligand
Concentration: 1 µM
Quantity: remaining binding
FLT3 (Homo sapiens, UniProt P36888, D835Y); cell-free assay: 97%
FLT3 (Homo sapiens, UniProt P36888, D835V); cell-free assay: 79%
CAMKK2 (Homo sapiens, UniProt Q96RR4); cell-free assay: 100%
MATK (Homo sapiens, UniProt P42679); cell-free assay: 100%
CDK4 (Homo sapiens, UniProt P11802); cell-free assay: 100%
Tyrosine-protein kinase JAK1, JH2 (JAK1, Homo sapiens, UniProt P23458); cell-free assay: 90%
DDR2 (Homo sapiens, UniProt Q16832); cell-free assay: 92%
MAP4K1 (Homo sapiens, UniProt Q92918); cell-free assay: 96%
FLT3 (Homo sapiens, UniProt P36888, K663Q); cell-free assay: 100%
TEK (Homo sapiens, UniProt Q02763); cell-free assay: 81%
PIK3C3 (Homo sapiens, UniProt Q8NEB9); cell-free assay: 95%
STK35 (Homo sapiens, UniProt Q8TDR2); cell-free assay: 100%
DSTYK (Homo sapiens, UniProt Q6XUX3); cell-free assay: 95%
CDK5 (Homo sapiens, UniProt Q00535); cell-free assay: 88%
BMPR1A (Homo sapiens, UniProt P36894); binding: 80%
EIF2AK2 (Homo sapiens, UniProt P19525); cell-free assay: 95%
EPHA1 (Homo sapiens, UniProt P21709); cell-free assay: 100%
KDR (Homo sapiens, UniProt P35968); cell-free assay: 93%
Tyrosine-protein kinase JAK3, JH1 (JAK3, Homo sapiens, UniProt P52333); cell-free assay: 100%
STK24 (Homo sapiens, UniProt Q9Y6E0); cell-free assay: 97%
PRPF4B (Homo sapiens, UniProt Q13523); cell-free assay: 96%
MAP4K3 (Homo sapiens, UniProt Q8IVH8); cell-free assay: 100%
EGFR (Homo sapiens, UniProt P00533, del747-752/P753S); cell-free assay: 100%
PIK3CA (Homo sapiens, UniProt P42336, E545K); cell-free assay: 85%
SRPK3 (Homo sapiens, UniProt Q9UPE1); cell-free assay: 100%

Study 2
SMILES: CO[C@@H]1[C@H](N(C)C(=O)c2ccccc2)C[C@H]2O[C@]1(C)n1c3ccccc3c3c4c(c5c6ccccc6n2c5c31)C(=O)NC4
Action: inhibitor
Concentration: 1 µM
Quantity: inhibition
TRPM6 (Homo sapiens, UniProt Q9BX84): 4%
ACVRL1 (Homo sapiens, UniProt P37023); enzyme activity: 0%
Tyrosine-protein kinase ABL1, phosphorylated (ABL1, Homo sapiens, UniProt P00519, E255K); enzyme activity: 26%
ULK2 (Homo sapiens, UniProt Q8IYT8); enzyme activity: 3%
ROS1 (Homo sapiens, UniProt P08922); enzyme activity: 56%
EPHA7 (Homo sapiens, UniProt Q15375); enzyme activity: 6%
KIT (Homo sapiens, UniProt P10721, V559D/V654A); enzyme activity: 64%
MAP4K2 (Homo sapiens, UniProt Q12851); enzyme activity: 94%
ULK3 (Homo sapiens, UniProt Q6PHR2); enzyme activity: 55%
DAPK1 (Homo sapiens, UniProt P53355); enzyme activity: 12%
MAPKAPK2 (Homo sapiens, UniProt P49137); enzyme activity: 0%
LIM domain kinase 2 (LIMK2, Homo sapiens, UniProt P53671); enzyme activity: 0%
PIK3C2G (Homo sapiens, UniProt O75747); enzyme activity: 32%
PDGFRA (Homo sapiens, UniProt P16234); enzyme activity: 81%
Tyrosine-protein kinase ABL1, phosphorylated (ABL1, Homo sapiens, UniProt P00519, F317I); enzyme activity: 32%

Study 3
Target: Vascular endothelial growth factor receptor 3 (FLT4, Homo sapiens, UniProt P35916)
UniProt P35916, sequence (whole entry, looked up): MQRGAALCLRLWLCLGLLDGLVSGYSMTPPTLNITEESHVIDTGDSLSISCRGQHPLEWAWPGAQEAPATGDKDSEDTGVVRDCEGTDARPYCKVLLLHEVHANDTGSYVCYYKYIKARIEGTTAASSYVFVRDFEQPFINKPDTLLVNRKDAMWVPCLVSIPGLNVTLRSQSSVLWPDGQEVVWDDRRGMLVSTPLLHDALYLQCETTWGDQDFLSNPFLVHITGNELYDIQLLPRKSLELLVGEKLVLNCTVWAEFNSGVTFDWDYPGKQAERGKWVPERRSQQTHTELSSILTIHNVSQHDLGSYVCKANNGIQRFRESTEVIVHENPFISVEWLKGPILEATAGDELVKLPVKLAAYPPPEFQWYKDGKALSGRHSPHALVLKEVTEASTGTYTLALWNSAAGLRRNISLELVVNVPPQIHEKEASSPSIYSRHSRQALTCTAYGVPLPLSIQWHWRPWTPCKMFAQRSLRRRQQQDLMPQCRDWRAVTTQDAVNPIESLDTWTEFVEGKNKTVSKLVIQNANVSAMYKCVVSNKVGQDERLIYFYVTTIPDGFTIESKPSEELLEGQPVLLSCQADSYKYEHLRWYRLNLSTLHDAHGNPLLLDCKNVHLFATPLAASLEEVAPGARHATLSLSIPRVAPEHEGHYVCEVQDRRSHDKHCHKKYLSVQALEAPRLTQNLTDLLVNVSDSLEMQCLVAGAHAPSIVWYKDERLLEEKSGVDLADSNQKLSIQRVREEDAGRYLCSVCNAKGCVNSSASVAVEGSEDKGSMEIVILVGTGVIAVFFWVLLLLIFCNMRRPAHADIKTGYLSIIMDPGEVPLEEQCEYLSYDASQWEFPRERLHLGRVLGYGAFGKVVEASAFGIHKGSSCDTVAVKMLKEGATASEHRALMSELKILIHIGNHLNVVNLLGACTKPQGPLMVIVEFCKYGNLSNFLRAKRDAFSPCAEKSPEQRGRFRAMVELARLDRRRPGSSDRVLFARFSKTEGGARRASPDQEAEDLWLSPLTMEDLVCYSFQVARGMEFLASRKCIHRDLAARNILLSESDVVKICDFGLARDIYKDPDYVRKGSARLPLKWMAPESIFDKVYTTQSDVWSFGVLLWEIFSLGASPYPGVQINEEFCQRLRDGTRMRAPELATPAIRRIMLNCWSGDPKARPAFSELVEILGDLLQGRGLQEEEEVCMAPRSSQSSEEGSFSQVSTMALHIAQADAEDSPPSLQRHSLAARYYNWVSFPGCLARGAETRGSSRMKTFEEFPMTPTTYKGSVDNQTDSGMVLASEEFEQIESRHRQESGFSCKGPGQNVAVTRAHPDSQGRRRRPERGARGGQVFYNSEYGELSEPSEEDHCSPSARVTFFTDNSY
Read-out: enzyme activity
Action: inhibitor
Concentration: 0.5 µM
Relative to: control
Quantity: remaining activity
O=C1c2ccccc2-c2nc3nnnn3nc21: 5.79%
CC(C)n1cnc2c(Nc3cccc(Cl)c3)nc(NCCO)nc21: 92.6%
c1cc(-c2cnn3cc(-c4ccc(OCCN5CCCCC5)cc4)cnc23)ccn1: 16.3%
N#C/C(=C(/N)SC1C=CC=CC1)c1cccc(C(O)c2ccncc2)c1 (centres unmarked): 99.9%
CCCCc1c(-c2ccc(O)cc2)[nH]c2nccnc12: 77.4%
CCN(CC)CCCCN1c2ccccc2Oc2ccc(Cl)cc21: 98.8%
CNc1cc2c(Nc3cccc(Br)c3)ncnc2cn1: 97%
CC(C)(C)c1nc2c3cc[nH]c(=O)c3c3cc(F)ccc3c2[nH]1: 71.2%
NC(=O)c1cccc(-c2cc(Nc3ccc(OC(F)(F)F)cc3)ncn2)c1: 98.5%
O=C(c1ccccc1)c1ccc(N2CCOCC2)cc1O: 112%
O=C1NC(=O)/C(=C/c2ccc3c(c2)OC(F)(F)O3)S1: 107%
O=C(O)/C=C/c1cc(Br)c(Br)c(Br)c1Br: 98.2%
FC(F)(F)c1ccc(/C=C/c2nc(COc3ccc(CCCCn4ccnn4)cc3)co2)cc1: 98%
NC(=O)c1ccc(-c2nc(-c3ccc4c(c3)OCCO4)c(-c3ccccn3)[nH]2)cc1: 103%
COc1cc2c(N3CCN(C(=O)Nc4ccc(OC(C)C)cc4)CC3)ncnc2cc1OCCCN1CCCCC1: 94.6%
O=c1c(-c2ccc(F)cc2)c(-c2ccncc2)[nH]n1-c1ccc(Cl)cc1: 91.5%
C[C@@H](N)[C@H]1CC[C@H](C(=O)Nc2ccncc2)CC1: 105%
CC(C)N(CCC(=O)c1ccc2ccccc2c1)Cc1ccccc1: 94%
Nc1nc(Nc2ccc(S(N)(=O)=O)cc2)nn1C(=S)Nc1c(F)cccc1F: 3.75%

Study 4
Species: mouse
Medium: microsomes or S9
Concentration: 2 µM
Time: 0.5 h
Quantity: remaining compound
N#Cc1ccc(C(=O)N2CCC(N(Cc3ccccc3)C(=O)c3ccc(C#N)[nH]3)C2)[nH]1 (centres unmarked): 55.1%
CC(Oc1cc(-n2nc3c(c2Cl)CCCC3)c(F)cc1Cl)C(C)(C)O (centres unmarked): 26.3%
CCCn1c2c(c(O)c(C(=O)OCC)c1=O)CCCC2: 0.0434%
CS(=O)(=O)n1c(-c2ccccc2)c(C#Cc2ccccc2)c2ccccc21: > 99%
Cc1ccc(C(=O)C2=CN(c3ccc(N(C)C)cc3)c3ccccc3S2(=O)=O)c(C)c1: 2.73%
CC(C(=O)Nc1ccc2c(c1)CCC2)n1nc(-c2ccc3c(c2)OCCO3)ccc1=O (centres unmarked): 6.84%
O=C(C1CCOCC1)N1CCCC(Cn2cnc3cccnc32)C1 (centres unmarked): 91.4%
O=C(O)C1CC[C@@H](c2ccccc2)N1C(=O)C1CCCS1(=O)=O (some centres unmarked): > 100%
c1ccc(-c2cc(-c3cc4ccccc4o3)nc3nnnn23)cc1: 21.1%
O=C1CCC(=O)N1OCCCOc1ccc2c(c1)CCC2: 35.2%
Cc1ncc(-c2onc(C)c2C)c(-c2ccco2)n1: 10%
Cc1cccc2c(=O)n(CC(=O)NCC3CC4c5ccccc5C3c3ccccc34)cnc12 (centres unmarked): 1.28%
CCOC(=O)CCCc1nc2cc(N)ccc2n1C: 56.1%
CCOC(=O)c1c(C)c(C(=O)CN(C)S(=O)(=O)c2ccccc2)c(C)n1CC: 3.42%
COc1ccccc1OCC(=O)N(Cc1ccc(-c2ccc(F)cc2)o1)C1CCS(=O)(=O)C1 (centres unmarked): 5.15%

Repeated from above (study 4):
CCCn1c2c(c(O)c(C(=O)OCC)c1=O)CCCC2: 0.0434%
CS(=O)(=O)n1c(-c2ccccc2)c(C#Cc2ccccc2)c2ccccc21: > 99%
Cc1ccc(C(=O)C2=CN(c3ccc(N(C)C)cc3)c3ccccc3S2(=O)=O)c(C)c1: 2.73%
CC(C(=O)Nc1ccc2c(c1)CCC2)n1nc(-c2ccc3c(c2)OCCO3)ccc1=O (centres unmarked): 6.84%
O=C(C1CCOCC1)N1CCCC(Cn2cnc3cccnc32)C1 (centres unmarked): 91.4%
O=C(O)C1CC[C@@H](c2ccccc2)N1C(=O)C1CCCS1(=O)=O (some centres unmarked): > 100%
c1ccc(-c2cc(-c3cc4ccccc4o3)nc3nnnn23)cc1: 21.1%
O=C1CCC(=O)N1OCCCOc1ccc2c(c1)CCC2: 35.2%
Cc1ncc(-c2onc(C)c2C)c(-c2ccco2)n1: 10%
Cc1cccc2c(=O)n(CC(=O)NCC3CC4c5ccccc5C3c3ccccc34)cnc12 (centres unmarked): 1.28%
CCOC(=O)CCCc1nc2cc(N)ccc2n1C: 56.1%
